Literature values, collected from citations in different studies.
Lines come from different studies, so protocols differ. ± gives the spread as reported. Values after ≈ are worked out from the molar mass of the structure shown.
UniProt Q9UBF8, sequence (whole entry, looked up): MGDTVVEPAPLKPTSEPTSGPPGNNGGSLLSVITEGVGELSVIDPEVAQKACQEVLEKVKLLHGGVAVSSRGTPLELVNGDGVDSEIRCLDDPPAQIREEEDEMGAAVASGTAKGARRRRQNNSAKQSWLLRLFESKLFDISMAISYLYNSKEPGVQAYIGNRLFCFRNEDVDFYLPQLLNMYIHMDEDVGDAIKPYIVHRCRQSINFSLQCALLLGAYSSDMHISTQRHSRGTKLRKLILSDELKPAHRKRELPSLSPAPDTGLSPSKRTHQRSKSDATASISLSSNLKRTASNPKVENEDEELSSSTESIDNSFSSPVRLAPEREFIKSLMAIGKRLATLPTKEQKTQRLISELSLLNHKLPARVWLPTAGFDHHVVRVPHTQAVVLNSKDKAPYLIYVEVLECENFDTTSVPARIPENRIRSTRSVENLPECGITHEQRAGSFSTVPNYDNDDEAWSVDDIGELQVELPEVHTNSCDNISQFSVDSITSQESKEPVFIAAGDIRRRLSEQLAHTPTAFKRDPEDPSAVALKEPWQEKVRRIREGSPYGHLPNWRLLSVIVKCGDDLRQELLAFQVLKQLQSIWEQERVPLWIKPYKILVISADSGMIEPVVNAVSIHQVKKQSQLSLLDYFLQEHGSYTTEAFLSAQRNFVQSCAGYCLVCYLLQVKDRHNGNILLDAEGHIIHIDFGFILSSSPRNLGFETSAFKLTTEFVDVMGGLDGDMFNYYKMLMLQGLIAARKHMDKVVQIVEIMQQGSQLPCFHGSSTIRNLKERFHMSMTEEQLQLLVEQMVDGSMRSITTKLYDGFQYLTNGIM
UniProt Q9UQB9, sequence (whole entry, looked up): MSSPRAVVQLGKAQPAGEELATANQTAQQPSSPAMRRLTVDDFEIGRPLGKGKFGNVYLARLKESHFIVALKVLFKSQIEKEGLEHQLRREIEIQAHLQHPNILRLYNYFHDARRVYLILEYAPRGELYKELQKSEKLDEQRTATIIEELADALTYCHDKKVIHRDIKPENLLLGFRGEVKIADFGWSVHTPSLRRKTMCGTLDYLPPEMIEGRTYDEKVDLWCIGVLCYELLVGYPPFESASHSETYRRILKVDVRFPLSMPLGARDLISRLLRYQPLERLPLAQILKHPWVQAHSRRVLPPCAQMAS
UniProt P41738, sequence (whole entry, looked up): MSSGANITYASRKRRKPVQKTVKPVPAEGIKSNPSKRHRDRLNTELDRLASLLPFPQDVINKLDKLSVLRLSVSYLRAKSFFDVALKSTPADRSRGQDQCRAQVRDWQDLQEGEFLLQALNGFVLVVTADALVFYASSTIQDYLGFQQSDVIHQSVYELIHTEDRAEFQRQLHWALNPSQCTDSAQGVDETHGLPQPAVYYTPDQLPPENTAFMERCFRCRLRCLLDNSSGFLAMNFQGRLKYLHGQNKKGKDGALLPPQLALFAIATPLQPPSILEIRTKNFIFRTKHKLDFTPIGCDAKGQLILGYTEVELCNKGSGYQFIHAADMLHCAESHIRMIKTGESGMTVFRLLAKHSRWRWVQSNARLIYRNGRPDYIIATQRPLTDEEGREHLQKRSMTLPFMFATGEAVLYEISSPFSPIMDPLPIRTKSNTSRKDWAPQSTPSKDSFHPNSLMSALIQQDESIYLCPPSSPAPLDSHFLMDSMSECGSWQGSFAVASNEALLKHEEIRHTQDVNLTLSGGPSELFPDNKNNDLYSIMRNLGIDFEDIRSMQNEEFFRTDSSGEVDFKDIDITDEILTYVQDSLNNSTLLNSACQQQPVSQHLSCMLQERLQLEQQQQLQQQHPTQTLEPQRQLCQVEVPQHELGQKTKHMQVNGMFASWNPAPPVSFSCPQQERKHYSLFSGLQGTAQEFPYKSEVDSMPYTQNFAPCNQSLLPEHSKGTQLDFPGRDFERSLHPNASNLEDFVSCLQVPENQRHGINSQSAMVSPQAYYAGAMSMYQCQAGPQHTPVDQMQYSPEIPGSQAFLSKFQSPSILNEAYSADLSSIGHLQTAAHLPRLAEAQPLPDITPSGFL
UniProt Q96BR1, sequence (whole entry, looked up): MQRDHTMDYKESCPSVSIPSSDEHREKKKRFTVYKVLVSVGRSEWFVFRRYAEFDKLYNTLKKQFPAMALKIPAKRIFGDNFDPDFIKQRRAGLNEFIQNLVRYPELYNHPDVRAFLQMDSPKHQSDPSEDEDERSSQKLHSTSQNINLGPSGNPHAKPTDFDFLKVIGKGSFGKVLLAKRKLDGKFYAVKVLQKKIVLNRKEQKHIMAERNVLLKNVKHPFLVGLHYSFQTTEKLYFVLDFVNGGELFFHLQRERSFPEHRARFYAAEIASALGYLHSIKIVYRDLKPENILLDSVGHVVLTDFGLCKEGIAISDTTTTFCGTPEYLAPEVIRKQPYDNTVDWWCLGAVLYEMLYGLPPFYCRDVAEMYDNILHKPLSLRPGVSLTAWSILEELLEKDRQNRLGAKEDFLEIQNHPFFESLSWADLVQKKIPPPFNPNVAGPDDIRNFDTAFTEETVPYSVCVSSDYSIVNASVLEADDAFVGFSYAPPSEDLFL
UniProt O75747, sequence (whole entry, looked up): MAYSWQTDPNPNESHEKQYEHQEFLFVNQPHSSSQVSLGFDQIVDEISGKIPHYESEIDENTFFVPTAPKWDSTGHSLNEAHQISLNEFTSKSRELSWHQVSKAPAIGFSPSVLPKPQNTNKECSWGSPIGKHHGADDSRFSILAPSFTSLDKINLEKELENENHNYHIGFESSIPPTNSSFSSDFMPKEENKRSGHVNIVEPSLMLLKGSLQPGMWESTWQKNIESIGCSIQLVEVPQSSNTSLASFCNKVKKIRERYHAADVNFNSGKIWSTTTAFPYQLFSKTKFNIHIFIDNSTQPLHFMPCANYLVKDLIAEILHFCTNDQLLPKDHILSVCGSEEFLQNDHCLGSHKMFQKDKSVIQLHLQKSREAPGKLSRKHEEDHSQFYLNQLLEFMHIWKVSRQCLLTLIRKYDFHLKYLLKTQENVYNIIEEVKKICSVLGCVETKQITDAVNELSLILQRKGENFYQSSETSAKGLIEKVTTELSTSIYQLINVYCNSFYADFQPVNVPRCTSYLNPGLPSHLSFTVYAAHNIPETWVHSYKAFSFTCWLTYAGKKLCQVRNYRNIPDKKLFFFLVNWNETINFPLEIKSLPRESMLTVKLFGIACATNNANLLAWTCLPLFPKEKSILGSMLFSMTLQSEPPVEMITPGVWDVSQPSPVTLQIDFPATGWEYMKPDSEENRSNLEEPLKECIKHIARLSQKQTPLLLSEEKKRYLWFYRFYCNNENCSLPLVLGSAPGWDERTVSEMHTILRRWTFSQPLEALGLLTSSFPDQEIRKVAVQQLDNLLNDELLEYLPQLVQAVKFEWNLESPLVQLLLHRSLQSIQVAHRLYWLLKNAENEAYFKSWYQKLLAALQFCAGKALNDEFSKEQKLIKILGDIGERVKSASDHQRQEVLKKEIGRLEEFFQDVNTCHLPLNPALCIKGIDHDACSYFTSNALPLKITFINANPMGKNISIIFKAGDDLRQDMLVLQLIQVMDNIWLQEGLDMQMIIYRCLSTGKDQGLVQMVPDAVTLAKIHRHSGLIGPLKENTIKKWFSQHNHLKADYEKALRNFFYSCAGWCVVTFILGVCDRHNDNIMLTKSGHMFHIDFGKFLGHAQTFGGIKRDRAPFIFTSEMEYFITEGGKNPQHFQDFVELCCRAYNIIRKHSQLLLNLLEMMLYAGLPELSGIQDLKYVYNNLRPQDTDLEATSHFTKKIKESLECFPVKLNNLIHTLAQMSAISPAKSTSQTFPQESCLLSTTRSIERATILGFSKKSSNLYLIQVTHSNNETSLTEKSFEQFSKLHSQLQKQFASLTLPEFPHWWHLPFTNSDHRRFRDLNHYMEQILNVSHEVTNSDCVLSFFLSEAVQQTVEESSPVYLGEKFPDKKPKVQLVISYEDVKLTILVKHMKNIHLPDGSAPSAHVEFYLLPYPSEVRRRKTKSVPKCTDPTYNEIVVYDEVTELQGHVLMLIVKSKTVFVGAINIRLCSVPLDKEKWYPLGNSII
UniProt Q9H7B4, sequence (whole entry, looked up): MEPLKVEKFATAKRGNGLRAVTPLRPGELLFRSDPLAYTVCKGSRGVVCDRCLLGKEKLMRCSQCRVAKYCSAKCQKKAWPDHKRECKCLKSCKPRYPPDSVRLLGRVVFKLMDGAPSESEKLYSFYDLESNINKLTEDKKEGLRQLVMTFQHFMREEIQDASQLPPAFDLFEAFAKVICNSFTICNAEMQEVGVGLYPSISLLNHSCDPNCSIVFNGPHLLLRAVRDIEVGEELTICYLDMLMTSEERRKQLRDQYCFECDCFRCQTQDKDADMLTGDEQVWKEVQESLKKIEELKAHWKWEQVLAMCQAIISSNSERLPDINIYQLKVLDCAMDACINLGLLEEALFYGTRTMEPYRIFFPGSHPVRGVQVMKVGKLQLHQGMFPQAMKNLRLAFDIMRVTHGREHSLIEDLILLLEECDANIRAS
UniProt P08913, sequence (whole entry, looked up): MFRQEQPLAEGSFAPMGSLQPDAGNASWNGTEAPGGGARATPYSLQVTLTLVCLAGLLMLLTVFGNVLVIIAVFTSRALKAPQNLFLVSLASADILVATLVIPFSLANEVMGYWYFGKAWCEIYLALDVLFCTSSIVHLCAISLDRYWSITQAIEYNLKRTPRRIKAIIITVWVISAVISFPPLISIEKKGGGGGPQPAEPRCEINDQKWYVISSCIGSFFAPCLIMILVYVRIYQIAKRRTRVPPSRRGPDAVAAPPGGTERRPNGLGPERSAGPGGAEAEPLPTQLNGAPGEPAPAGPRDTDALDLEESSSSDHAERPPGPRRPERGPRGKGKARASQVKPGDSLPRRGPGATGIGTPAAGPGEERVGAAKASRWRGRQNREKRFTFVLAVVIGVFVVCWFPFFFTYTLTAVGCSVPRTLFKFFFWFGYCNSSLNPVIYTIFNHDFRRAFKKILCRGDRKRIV

Structure (SMILES) | tested on | assay | test system | setting | scale | endpoint | value
c1ccc2c(c1)cc1c3c2ccc2cccc(c23)C1 | Ahr (Rattus norvegicus, UniProt P41738) |  |  | 50% effect level | baseline: benzo[a]pyrene | relative potency | 1
CC(C)=CCCC(C)=CC=O (mixture of isomers) | Old Yellow Enzyme 1 | substrate |  |  |  | conversion | 49 to 98%
O=C(CCCCCCc1ccccc1)c1ncc(-c2ccccn2)o1 | cannabinoid CB2 receptor |  |  | concentration not given |  | binding | no binding
Nc1cc(C(F)(F)F)c(-c2nc(N3CCOCC3)nc(N3CCOCC3)n2)cn1 | Aurora kinase C (AURKC, Homo sapiens, UniProt Q9UQB9) | enzyme activity |  | 10 µM | baseline: untreated | remaining activity | 80%
Cc1cc(NC(=O)c2cccc(NC(=O)/C=C/CN(C)C)c2)ccc1Nc1nccc(-c2cccnc2)n1 | SGK3 (Homo sapiens, UniProt Q96BR1) | enzyme activity, inhibitor |  | 1 µM | baseline: vehicle | remaining activity | 48%
CC(C)(O/N=C(\C(=O)N[C@@H]1C(=O)N2C(C(=O)[O-])=C(C[n+]3ccccc3)CS[C@H]12)c1csc(N)n1)C(=O)O | Escherichia coli |  | clinical isolate RKI-No_462/16 |  |  | MIC | ≤ 2 µg/mL
Cc1nc(NC(=O)N2CCC[C@H]2C(N)=O)sc1-c1ccnc(C(C)(C)C(F)(F)F)c1 | PI4KB (Homo sapiens, UniProt Q9UBF8) | KinomeScan competition binding |  | 10 µM |  | remaining binding | 1.7%
COC(=O)[C@@H]1[C@H]2C[C@H]3c4[nH]c5ccccc5c4CCN3C[C@@H]2CC[C@@H]1O | ADRA2A (Homo sapiens, UniProt P08913) |  |  | historical reference value |  | Hill coefficient | 0.9
Cc1c(CN2CCN(C(=O)[C@H](C)O)CC2)sc2c(N3CCOCC3)nc(-c3cnc(N)nc3)nc12 | PIK3C2G (Homo sapiens, UniProt O75747) | KinomeScan competition binding |  | 10 µM |  | remaining binding | 12%
NCCC[C@H](N)C(=O)O | ornithine aminotransferase (Toxoplasma gondii, UniProt S8EY38) | substrate turnover, substrate |  |  |  | Km | 6.9 ± 0.3 mM
O=C1CC[C@H](N2Cc3cc(N4CCN(CC5CCN(c6ccc([C@@H]7c8ccc(O)cc8CC[C@@H]7c7ccccc7)cc6)CC5)CC4)ccc3C2=O)C(=O)N1 | Estrogen receptor (ESR1, Homo sapiens, UniProt P03372) | degrader | human patients | 200 mg once daily |  | maximum reduction | 95%
CCN(c1cc(-c2ccc(CN3CCOCC3)cc2)cc(C(=O)NCc2c(C)cc(C)[nH]c2=O)c1C)C1CCOCC1 | SMYD3 (Homo sapiens, UniProt Q9H7B4) | enzyme activity, inhibitor |  | 1 µM |  | inhibition | 0 ± 5%
O=C(c1ccc(F)cc1)C1CCN(CCn2c(=O)[nH]c3ccccc3c2=O)CC1 | HTR2B (Homo sapiens, UniProt P41595) | binding |  |  |  | Hill coefficient | 0.6
CNC(C)C1CCC(N)C(OC2C(N)CC(N)C(OC3OCC(C)(O)C(NC)C3O)C2O)O1 (stereo not shown) | Enterobacter cloacae |  | clinical isolate RKI-No_37/14 |  |  | MIC | 4 µg/mL (≈ 8.38 µM)
C=CC(=O)N1CCC(C(=O)NCC(=O)N2CCN(c3nc(-c4cnc(N)nc4C(F)F)nc(N4CCOCC4)n3)CC2)CC1 | PIK3CA (Homo sapiens, UniProt P42336, I800L) | kinase activity |  | 1 µM |  | remaining activity | 0%
CC(C)(O/N=C(\C(=O)N[C@@H]1C(=O)N2C(C(=O)[O-])=C(C[N+]3(CCNC(=O)c4ccc(O)c(O)c4Cl)CCCC3)CS[C@H]12)c1csc(N)n1)C(=O)O | AmpC beta-lactamase (Enterobacter) | hydrolysis, substrate |  |  |  | Km | 0.0498 mM
